{"data": "Measurements of several laboratories", "note": "Numbered parts are unrelated; each lists some results of a single study. Substitutions count along the parent as printed."}
{"data": "Sample 1", "target": "CCND3, cyclin fold, Cln2 fusion (human)", "technique": "yeast growth competition, sequencing", "matrix": "yeast", "notes": "weak parent motif", "relative to": "not given", "direction": "higher = stronger binding", "parent": "ORC1 docking peptide (human); PRARKRLELGNLG"}
{"Change": "E8V", "normalised enrichment score": 0.183}
{"Change": "K5P", "normalised enrichment score": 0.18}
{"Change": "E8G", "normalised enrichment score": 0.16}
{"Change": "R2S", "normalised enrichment score": 0.0822}
{"Change": "G13W", "normalised enrichment score": 0.0302}
{"Change": "P1F", "normalised enrichment score": -0.0357}
{"Change": "L9C", "normalised enrichment score": 0.131}
{"Change": "N11A", "normalised enrichment score": 0.0895}
{"Change": "R2Y", "normalised enrichment score": 0.0678}
{"data": "Sample 2", "target": "Histone acetyltransferase KAT6A, both winged helices, GST fusion (KAT6A, Homo sapiens, UniProt Q92794, residues 1-181)", "technique": "protein binding microarray", "molecule type": "double-stranded DNA, one strand shown", "matrix": "in vitro", "concentration": "not given", "notes": "8-mer, flanks averaged, mean of 2 arrays, mostly near background", "relative to": "not given", "direction": "higher = stronger binding", "Target sequence (chain)": "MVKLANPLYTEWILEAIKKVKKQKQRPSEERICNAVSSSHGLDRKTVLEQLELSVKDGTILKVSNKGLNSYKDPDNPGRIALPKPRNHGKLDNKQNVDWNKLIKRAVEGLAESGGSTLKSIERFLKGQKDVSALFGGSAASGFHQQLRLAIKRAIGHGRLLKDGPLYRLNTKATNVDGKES"}
{"Sequence": "AGTATGCC", "E-score": -0.0289}
{"Sequence": "GGGTCCCA", "E-score": 0.0149}
{"Sequence": "AATTTGAC", "E-score": -0.0669}
{"Sequence": "AGTTCAAC", "E-score": -0.093}
{"Sequence": "ATTTCGCA", "E-score": -0.0877}
{"Sequence": "ATTATCTG", "E-score": -0.157}
{"Sequence": "AAATCCGT", "E-score": 0.0929}
{"Sequence": "CTTACCGC", "E-score": 0.199}
{"Sequence": "ATACAGCC", "E-score": -0.0554}
{"Sequence": "ATGCGGCA", "E-score": 0.151}
{"Sequence": "GAGCTTCA", "E-score": -0.0021}
{"Sequence": "CCCAATCG", "E-score": -0.0344}
{"Sequence": "ACTCGTTC", "E-score": -0.124}
{"Sequence": "TAATTGGA", "E-score": -0.0442}
{"data": "Sample 3", "target": "Hepatocyte nuclear factor 3-alpha (Foxa1, Mus musculus, UniProt P35582, residues 1-468, full length assumed)", "technique": "EMSA with sequencing", "molecule type": "double-stranded DNA, one strand shown", "matrix": "in vitro", "concentration": "10 and 20 nM", "notes": "whole designed probe, mean of two concentrations, ends assumed", "relative to": "negative control set to 0", "direction": "higher = stronger binding", "shared flanks, not repeated": "GTGAGCGGTGCCCATTGATGGGGAAC … TTTCACTGGGATCGTGGGGAC", "sequence of UniProt P35582 (whole entry, looked up)": "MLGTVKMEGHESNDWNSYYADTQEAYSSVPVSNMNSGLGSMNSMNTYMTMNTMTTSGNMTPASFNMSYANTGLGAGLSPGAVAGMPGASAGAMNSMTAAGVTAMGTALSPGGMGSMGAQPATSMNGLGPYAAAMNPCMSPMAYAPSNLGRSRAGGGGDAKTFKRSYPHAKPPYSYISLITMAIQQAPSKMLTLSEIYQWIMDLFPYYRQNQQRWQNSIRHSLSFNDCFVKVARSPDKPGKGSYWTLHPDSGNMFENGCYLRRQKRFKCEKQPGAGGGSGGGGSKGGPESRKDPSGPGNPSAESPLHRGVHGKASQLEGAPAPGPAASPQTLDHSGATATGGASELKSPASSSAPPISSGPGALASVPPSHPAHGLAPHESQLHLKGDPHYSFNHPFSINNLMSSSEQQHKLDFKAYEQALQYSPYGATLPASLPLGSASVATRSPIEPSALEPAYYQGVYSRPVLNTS"}
{"Sequence": "ATCTTCCCCCTCTTCCTTGCCCCACCAGCTCACCTTCCCGGGTTATTTGCACAAAGGAAAATAAATAAAGCCGGCATTCGTTAACCCTCTTCACGCGCATACTGCTGTTTGCTCTGCATGAATCATGGTCCTTACGCGAGGCGTGGCTCCGGGAGAGCAAAGCACCGTGTCAGGCGCATGATCCGGGGTGGCC", "normalised bound fraction [ratio]": 0.378}
{"Sequence": "GGCGGAAGTGGAAAGAAATTGAGGGATCTGAATTTGTTGTTTACTAGGAGGTGTGGGTCCAACTTCCAACCTTGTCCCCAGACCTTTTCCAGGTGTTTGCTTAGGAAGCACTGCCATCTTGTGGCTTACTATAGTTATTGCAGACAGAAGGAAAATCTACCAAAGCCCCCATGACAATACCAATGAGCAATGA", "normalised bound fraction [ratio]": 0.242}
{"Sequence": "CATCAAGGGTGTGTGATGAATGTTATGTCTGTGATTATGCAACAGGAGATGGGACTTTCCATCTTTCTAGCAGGCTTTCTCGACTCTCTCCCTTATTGACTTTGTTGATGTAAGCCTCCATGTGGTAAAGCCCTTGTGGCGGGAACTCAGGGCAGCCTCCGGCAACAGCCAGCAGGGAGCTGGGACTCAACAA", "normalised bound fraction [ratio]": 0.282}
{"Sequence": "ATCTTCCCCCTCTTCCTTGCCCCACCAGCTCACCTTCCCGGGTCAAAGTAAACAAGTGTTTACTTTGAAGCCGGCATTCGTTAACCCTCTTCTGGCGCAAACTGCCAGAGCAAACAGATCTAACATGGTCCTTTGGCGACGCCAGGCTCCGGGAGAGCAAAGCACCGTGTCAGGGCCATGATCCGGGGTGGCC", "normalised bound fraction [ratio]": 0.463}
{"Sequence": "TCCATGTAATGAAAGGTGATGAATTTAGCTTGCTTTCTCTGCTTCCTTCTTTCAGTCCCTGCCAGTCACATATTTATTTACTTCTTCTTCTATAAATTACTTTTAGAAATTTAAATAATATATTTCAACATCTATTTCCTGACTTCTTGTTGGATCATTGCCTGTACAAAAATGATTTTGTTTTATTCTCATA", "normalised bound fraction [ratio]": 0.238}
{"Sequence": "TAGACAAGTTTACGTAATCCTTCTGTTCCTCAGTTTCCTCATCTGTTACATGGGTGATATTAATAGGGTGTACCTTTTGATTGGGCTGGACCCAGATTGCATTCTGCCCTGAAGGAGAGCGGGGCTGTGGGTCAAAGCTGCCCTAATTATAGGTGCAGCATCCGGAGCAAGGTGTTGCTTGGCTCTGCACTGC", "normalised bound fraction [ratio]": -0.0639}
{"Sequence": "CATGTACAAACAAAATATGGGTTGTGTAATTTCAGTAATTCCATGTACAAGTTAAACACTCTGATTGCACAATATATTTGCATTTAAAATGTCGTAAACATGAATGCTAACAATCTTTTTTTTTTTTCCTGAGACGGAGTCTTGCTCTATCGCCCAGGCTGGAGTGCAGCGGCACAATCTCTGCTTACTGCCA", "normalised bound fraction [ratio]": 0.306}
{"Sequence": "GAAGGAAATAATGGAGCCAACCATGCATATAACCTCAGGGAGAACATTCTAGGTAGAGGGAACAGCAAGTGCAAAGGCCCTGAAGTGGGGGTTTGTTTACCTTCTGCACACAGGCCGTTGCACAATAGTACAATTGGAATGGATGGGAAATGTAAAAGAGAGAAGTTGAAAAGGCCAGGTGCAGTGGCTCATG", "normalised bound fraction [ratio]": 0.421}
{"data": "Single results of other studies"}
{"Molecule": "PhoQ, residues 284 288 289 292 302 303 TAVSDG", "target": "PhoP, residues 12 14 15 18 19 HEGLL (Escherichia coli, UniProt P23836)", "assay": "Sort-seq, measured: YFP reporter", "system": "E. coli", "conditions": "PhoQ-PhoP variant library, together with: 10 µM Mg2+", "how to read": "relative to: high Mg2+ state, higher = stronger signaling", "endpoint": "fold induction", "value": 1.22}
